Published values pooled from the literature.
Every numbered part comes from another study and shows a few of its results, in no order.

Series 1
Target: Histone acetyltransferase KAT6A, both winged helices, GST fusion (KAT6A, Homo sapiens, UniProt Q92794, residues 1-181)
Method: protein binding microarray
Form: double-stranded DNA, one strand shown
Matrix: in vitro
Concentration: not given
Setting: 8-mer, flanks averaged, mean of 2 arrays, mostly near background
Reference: not given
Direction: higher = stronger binding
Construct (chain): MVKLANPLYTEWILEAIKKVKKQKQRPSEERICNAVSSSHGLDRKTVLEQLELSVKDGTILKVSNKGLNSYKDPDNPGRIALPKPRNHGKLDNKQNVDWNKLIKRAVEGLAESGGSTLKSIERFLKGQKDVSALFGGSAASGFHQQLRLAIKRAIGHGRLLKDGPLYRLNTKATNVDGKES
`GCAGACAC` gave an E-score of 0.0309.
The E-score of `TCTCATCA` is reported as -0.226.
`CGTGGCTC` gave an E-score of 0.0991.
`GCCTGATA` has an E-score of -0.0313.
The E-score of `CTATCCTC` is reported as -0.201.
For `GCAAGAAA`, the E-score was -0.00184.
`CCATAAAC` has an E-score of -0.134.
`GAACGGCA` gave an E-score of 0.246.
`ATGGAAAC` gave an E-score of -0.0752.
For `AAGCGCAA`, the E-score was 0.207.
`GACGACAA` gave an E-score of -0.075.
The E-score of `GGAAACCA` is reported as -0.103.
`GCAGTTTA` has an E-score of -0.0827.
The E-score of `AGTCCCAC` is reported as -0.254.
With `ATTTTGTA` the E-score was -0.0469.
With `AGTGGATA` the E-score was -0.127.
`GACCATCA` gave an E-score of -0.0781.
The E-score of `GCAACAGC` is reported as 0.0636.
The E-score of `GATCCTGA` is reported as -0.0424.
The E-score of `ACTTCCCG` is reported as 0.157.
With `ATACGGAA` the E-score was 0.204.
`AAGGCTCC` has an E-score of -0.125.
For `AAAGTGAC`, the E-score was -0.0673.
`GAGGTCCC` gave an E-score of -0.0325.
With `TTACCCAA` the E-score was -0.266.

Series 2
Target: Sal-like protein 4, full length isoform B (SALL4, Homo sapiens, UniProt Q9UJQ4-2, residues 1-616)
Method: universal PBM
Form: double-stranded DNA, one strand shown
Matrix: in vitro
Concentration: not given
Setting: 8-mer, flanks averaged, mean of replicates
Direction: higher = stronger binding
The E-score of `ACTTGACT` is reported as -0.0229.
`AATCATCT` has an E-score of 0.116.
`GACGCCCC` gave an E-score of -0.369.
`GCATTTCA` gave an E-score of 0.104.
`CAGCACAG` has an E-score of -0.108.
For `GCGAGCCA`, the E-score was -0.197.
`CCGTGGAG` gave an E-score of -0.228.
`ACTATCGC` gave an E-score of 0.0588.
The E-score of `ACCTTTCA` is reported as -0.00168.
For `AAGCGCTC`, the E-score was -0.172.
`GCCGGGTA` has an E-score of -0.371.
The E-score of `CCGTATCA` is reported as 0.0369.
The E-score of `ATGTAATG` is reported as 0.261.
For `GCGTTCAC`, the E-score was -0.0752.
With `ACCCTAGA` the E-score was -0.0425.
For `CAGTCCCG`, the E-score was -0.254.
With `AGGCAGAT` the E-score was -0.0337.
For `AAAGGAAT`, the E-score was 0.162.
`AGCGAAGA` has an E-score of 0.0135.

Series 3
Target: Interferon regulatory factor 3, full length, phosphomimetic (IRF3, Homo sapiens, UniProt Q14653, residues 1-427, S386D/S396D/S398D/S402D/T404D/S405D)
Method: protein-binding microarray
Form: double-stranded DNA, one strand shown
Matrix: in vitro
Concentration: 2540 nM top
Setting: 60-bp whole probe
Together with: salmon DNA 0.4 mg/ml
Reference: random background probes
Direction: higher = stronger binding
Shared flanks, not repeated: GCCTAGCAC … GTCTTGATTCGCTTGACGCTGCTG
Residues (chain): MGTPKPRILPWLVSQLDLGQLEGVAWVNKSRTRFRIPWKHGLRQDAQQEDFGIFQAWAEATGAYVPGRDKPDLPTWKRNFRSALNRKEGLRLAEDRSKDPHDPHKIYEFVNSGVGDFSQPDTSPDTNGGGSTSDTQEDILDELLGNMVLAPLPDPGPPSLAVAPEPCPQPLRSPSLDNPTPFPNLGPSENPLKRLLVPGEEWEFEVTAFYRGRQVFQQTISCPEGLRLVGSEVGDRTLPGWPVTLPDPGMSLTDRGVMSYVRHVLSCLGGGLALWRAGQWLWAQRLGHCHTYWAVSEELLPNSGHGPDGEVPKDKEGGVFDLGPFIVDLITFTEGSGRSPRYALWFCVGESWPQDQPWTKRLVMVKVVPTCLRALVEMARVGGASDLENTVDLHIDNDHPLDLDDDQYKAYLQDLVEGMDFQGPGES
Under “fitted relative affinity”, `TTCAGTTTCTCTTTCCTTCTGTGCTAG` is recorded as 7.17 z-score.
`TTCACTTTCTTTAACTCATTGTGCTAG`: “fitted relative affinity” 2.89 z-score.
For `TTAGATTTCAGTTCCGATGAGTGCTAG`, “fitted relative affinity” read 2.94 z-score.
Under “fitted relative affinity”, `CCCTGTTTCCATCTCTCAAAGTGCTAG` is recorded as 7.72 z-score.
`GACGGACTGCGTCTCCTGACGTGCTAG`: “fitted relative affinity” -0.541 z-score.
`TTAGGACTGGGGTATCGGATAGTGCTA` — result for “fitted relative affinity”: -0.289 z-score.
`GACGGACTGGGGTATCGGTACGTGCTA`: “fitted relative affinity” 0.151 z-score.
`TTAGATTTCGGGACTGGGTTAGTGCTA` — result for “fitted relative affinity”: 1.02 z-score.
Under “fitted relative affinity”, `TCATTTTTTTTTTCCCTACTGTGCTAG` is recorded as 2.02 z-score.
`TCATTTCTCTCTGTGACACTGTGCTAG`: “fitted relative affinity” 2.49 z-score.
`TTAAGTTTCGGTTCCGGTTAGTGCTAG`: “fitted relative affinity” 10.9 z-score.
For `GACGAACTGTGTCTCGAGACGTGCTAG`, “fitted relative affinity” read -0.144 z-score.
`TCAGCAAAAATGATTGGACTGTGCTAG`: “fitted relative affinity” -0.598 z-score.
`TTAGGTCTCGGTTCCGGTTAGTGCTAG` — result for “fitted relative affinity”: 2.74 z-score.
`TTTGCTCTGTGCATAGTTCTGTGCTAG` — result for “fitted relative affinity”: -0.247 z-score.
Under “fitted relative affinity”, `GCCGGTCTCCTTATCCTGACGTGCTAG` is recorded as 3.57 z-score.
`ACCCTTGAGTGGTCCAGAGTGTGCTAG` — result for “fitted relative affinity”: -0.0257 z-score.
Under “fitted relative affinity”, `TTAGTTTTCGGGTTTCGGTTAGTGCTA` is recorded as 4.46 z-score.
Under “fitted relative affinity”, `TTAGGTCTCCTACTACTTTAGTGCTAG` is recorded as 1.34 z-score.
`TCATATATATCATTTAAACTGTGCTAG`: “fitted relative affinity” 1.01 z-score.
`AAGCTTCTGGTCTTCTGGACGTGCTAG` — result for “fitted relative affinity”: -0.448 z-score.
For `GACGAACTCAGTCTCGAGACGTGCTAG`, “fitted relative affinity” read 0.182 z-score.
`GACGAACTGGGGAGTGGAGACGTGCTA`: “fitted relative affinity” -0.542 z-score.
`TTAGGTATCCTACTGATTTAGTGCTAG`: “fitted relative affinity” 2.2 z-score.
`TCATATTAAAATTTCATACTGTGCTAG`: “fitted relative affinity” 1.32 z-score.

Series 4
Target: RING finger protein unkempt homolog, zinc fingers 1-6, GST-SBP tag (UNK, Homo sapiens, UniProt Q9C0B0, residues 30-357)
Method: RNA Bind-n-Seq
Form: RNA
Matrix: in vitro
Concentration: not given
Setting: RNA with constant flanks, ends assumed
Reference: input RNA pool
Direction: higher = stronger binding
Construct (chain): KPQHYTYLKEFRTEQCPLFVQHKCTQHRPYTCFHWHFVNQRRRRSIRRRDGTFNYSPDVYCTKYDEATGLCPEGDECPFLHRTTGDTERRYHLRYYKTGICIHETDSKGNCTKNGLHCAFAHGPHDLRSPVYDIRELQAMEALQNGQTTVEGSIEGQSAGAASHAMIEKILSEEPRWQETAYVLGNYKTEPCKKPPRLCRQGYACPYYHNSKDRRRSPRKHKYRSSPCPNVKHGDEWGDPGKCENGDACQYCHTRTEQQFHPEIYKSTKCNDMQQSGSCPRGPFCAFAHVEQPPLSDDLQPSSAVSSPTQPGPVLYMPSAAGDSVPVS
`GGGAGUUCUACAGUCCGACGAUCAGCGUUCAGGAAUUCAUGACCUUCACGAGUCAACUGAUUGUGGAGCGCUCAUCGAAAGGCACCCGAGCUUCUGUCAAAGAACAAGACUAUCUGUGCCACGUCUACGUCCGGAAUGAUAGUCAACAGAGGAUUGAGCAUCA` gave a bound/input enrichment of 0.0363 ratio.
`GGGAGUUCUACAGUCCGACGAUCUGCUGCAGUAAAACACUGAAGGCUUUAAAAUGUUUUCUUGCAUAAAAGUCAAACUUUAAGCCGCUGCUUAUGAGGAUAGGGAAGGCAGGAAGCUAAUGUCUGUCUCAAGACACAGGACAGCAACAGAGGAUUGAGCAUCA` has a bound/input enrichment of 0.224 ratio.
`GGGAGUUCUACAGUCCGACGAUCGACGUUAAAAAUUUUCUGUAUGCCUGGUGUGGCAAAAGGAAGAUGACCCCAUCCUAUGAAAUCCGAGCAGUGGGGAACAAAAACAGGCAGAAAUUCAUGUGUGAGGUUCAGGUGGAAGGUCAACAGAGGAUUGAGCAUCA` gave a bound/input enrichment of 0.299 ratio.
For `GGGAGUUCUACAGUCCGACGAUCAGAUUAGGCCAUGAUCCCUACAGACUAACUCCUGAUCCCUAUAGGAUGUCACCUAGACCCUACAGGACCGCACCCAGGUCCUAUAGAAUAGCACCCAGGCCAUAUAGGUUAGCACCUAGACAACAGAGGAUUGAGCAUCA`, the bound/input enrichment was 3.02 ratio.
`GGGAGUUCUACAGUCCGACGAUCCAGAACUGUGGCCCGAGUUUCCAAUCUCUGAUUGUGAAGAAGGAGUUCAUUAAAGAUACUCCCGUUAAGCUGCUGAAUCCCAGAUACACCUUACCGCUGGAGACCCAGAACAGAAUCUUGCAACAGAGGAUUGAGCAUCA` gave a bound/input enrichment of 0.0786 ratio.
With `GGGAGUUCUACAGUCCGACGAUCACCAUUUUCGCGGUUCAGGCUUUGUGUGUAGUUCACUUACGGUAUUAAAUUAUUAUUCUGCUCCGCUUAUAAUAAGGAUAAUUGCAUUUAAAGAGGUUACUGAAUGUUACUCUGAAACUUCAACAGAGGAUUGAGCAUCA` the bound/input enrichment was 0.486 ratio.
The bound/input enrichment of `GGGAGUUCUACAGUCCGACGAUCCCUUGGCAGCCAUUUCUCCCAGCAGUUUUAAAGGAUGAACAUUGGAUUUCAUGCCAUCCCACCGAAAACCUGUUUUAAAAUUUUAGGGAUCUUUACUUGGUCAUACAUGAAAAGUACACUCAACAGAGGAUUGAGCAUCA` is reported as 0.551 ratio.
With `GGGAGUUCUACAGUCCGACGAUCGCAGUUCGCAGAACAGAAACUGGACGCAUCGGAUUAGAAGGCUGCCUUUGUCAAGACUUUUACCGGAUACGAGACCUUUUAUAUGAACAGUAUGCCAUUGUGUAAAGGACAUGAUGUCAACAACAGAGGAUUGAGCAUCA` the bound/input enrichment was 0.109 ratio.

Series 5
Target: Max-binding protein MNT, bHLH-zipper, MAX partner unstated (MNT, Homo sapiens, UniProt Q99583, residues 220-300)
Method: protein-binding microarray
Form: double-stranded DNA, one strand shown
Matrix: in vitro
Concentration: not given
Setting: k-mer, scored over probes, only values ≥0.25
Direction: higher = stronger binding
Target sequence (chain): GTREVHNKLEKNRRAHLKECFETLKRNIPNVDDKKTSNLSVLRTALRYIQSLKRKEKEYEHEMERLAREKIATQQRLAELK
`ACGGGGGC` has an E-score of 0.285.
For `CGTGTGAG`, the E-score was 0.325.
`ATCGTGGG` has an E-score of 0.276.
For `CATGACCA`, the E-score was 0.325.
For `CTCCCCAA`, the E-score was 0.372.
For `ATGCGGGA`, the E-score was 0.27.
The E-score of `CACGCCCC` is reported as 0.319.
`AGCATGGA` has an E-score of 0.375.
`GGATTAAC` gave an E-score of 0.262.
`CATGTACA` has an E-score of 0.289.
The E-score of `ACGCTTCA` is reported as 0.278.
`ACCACGCA` gave an E-score of 0.349.
For `AACGTGGT`, the E-score was 0.45.
With `GCGGCGCA` the E-score was 0.262.
`GCGAGCAC` gave an E-score of 0.296.
`AACGAGGA` gave an E-score of 0.259.
With `TCGTGGAA` the E-score was 0.296.

A few entries again (series 5):
With `GCGGCGCA` the E-score was 0.262.
With `TCGTGGAA` the E-score was 0.296.
`ACGGGGGC` has an E-score of 0.285.
`GGATTAAC` gave an E-score of 0.262.
`AGCATGGA` has an E-score of 0.375.
The E-score of `CACGCCCC` is reported as 0.319.
